Published values gathered from unrelated publications.
Protocols differ between the studies behind these lines.
UniProt Q9UPZ9, sequence (whole entry, looked up): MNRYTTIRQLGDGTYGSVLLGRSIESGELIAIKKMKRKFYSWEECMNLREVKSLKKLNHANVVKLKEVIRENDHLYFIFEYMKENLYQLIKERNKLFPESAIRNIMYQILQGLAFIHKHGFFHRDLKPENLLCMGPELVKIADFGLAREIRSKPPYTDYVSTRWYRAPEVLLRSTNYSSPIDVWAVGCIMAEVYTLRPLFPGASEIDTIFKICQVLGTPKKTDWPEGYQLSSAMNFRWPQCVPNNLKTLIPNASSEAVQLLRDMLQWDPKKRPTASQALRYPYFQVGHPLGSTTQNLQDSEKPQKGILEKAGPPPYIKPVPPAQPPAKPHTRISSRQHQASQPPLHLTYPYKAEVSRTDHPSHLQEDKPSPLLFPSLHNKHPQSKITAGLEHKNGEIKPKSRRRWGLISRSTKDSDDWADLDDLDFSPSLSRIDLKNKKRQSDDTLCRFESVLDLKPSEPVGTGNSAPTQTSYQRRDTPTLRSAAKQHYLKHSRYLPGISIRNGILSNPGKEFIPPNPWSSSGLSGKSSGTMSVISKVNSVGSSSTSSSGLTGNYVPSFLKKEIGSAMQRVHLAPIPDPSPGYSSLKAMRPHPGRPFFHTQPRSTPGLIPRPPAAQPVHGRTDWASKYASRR
UniProt Q01959, sequence (whole entry, looked up): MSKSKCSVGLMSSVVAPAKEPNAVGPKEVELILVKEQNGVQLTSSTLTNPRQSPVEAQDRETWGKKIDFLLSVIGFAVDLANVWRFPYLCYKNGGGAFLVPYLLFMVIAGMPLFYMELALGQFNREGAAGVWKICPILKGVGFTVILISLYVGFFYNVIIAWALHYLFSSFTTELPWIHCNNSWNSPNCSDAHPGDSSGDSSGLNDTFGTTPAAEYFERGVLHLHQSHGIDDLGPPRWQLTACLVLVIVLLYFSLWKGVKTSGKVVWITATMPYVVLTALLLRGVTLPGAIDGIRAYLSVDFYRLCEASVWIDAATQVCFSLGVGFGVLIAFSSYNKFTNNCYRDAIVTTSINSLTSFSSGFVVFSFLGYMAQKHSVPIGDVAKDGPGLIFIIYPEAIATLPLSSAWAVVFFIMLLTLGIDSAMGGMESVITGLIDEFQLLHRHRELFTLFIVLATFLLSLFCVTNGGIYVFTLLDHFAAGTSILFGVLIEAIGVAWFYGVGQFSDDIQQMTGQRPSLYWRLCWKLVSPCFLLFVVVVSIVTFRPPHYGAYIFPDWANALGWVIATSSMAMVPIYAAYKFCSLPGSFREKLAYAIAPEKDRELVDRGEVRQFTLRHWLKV
UniProt Q9UIG0, sequence (whole entry, unmodified, looked up): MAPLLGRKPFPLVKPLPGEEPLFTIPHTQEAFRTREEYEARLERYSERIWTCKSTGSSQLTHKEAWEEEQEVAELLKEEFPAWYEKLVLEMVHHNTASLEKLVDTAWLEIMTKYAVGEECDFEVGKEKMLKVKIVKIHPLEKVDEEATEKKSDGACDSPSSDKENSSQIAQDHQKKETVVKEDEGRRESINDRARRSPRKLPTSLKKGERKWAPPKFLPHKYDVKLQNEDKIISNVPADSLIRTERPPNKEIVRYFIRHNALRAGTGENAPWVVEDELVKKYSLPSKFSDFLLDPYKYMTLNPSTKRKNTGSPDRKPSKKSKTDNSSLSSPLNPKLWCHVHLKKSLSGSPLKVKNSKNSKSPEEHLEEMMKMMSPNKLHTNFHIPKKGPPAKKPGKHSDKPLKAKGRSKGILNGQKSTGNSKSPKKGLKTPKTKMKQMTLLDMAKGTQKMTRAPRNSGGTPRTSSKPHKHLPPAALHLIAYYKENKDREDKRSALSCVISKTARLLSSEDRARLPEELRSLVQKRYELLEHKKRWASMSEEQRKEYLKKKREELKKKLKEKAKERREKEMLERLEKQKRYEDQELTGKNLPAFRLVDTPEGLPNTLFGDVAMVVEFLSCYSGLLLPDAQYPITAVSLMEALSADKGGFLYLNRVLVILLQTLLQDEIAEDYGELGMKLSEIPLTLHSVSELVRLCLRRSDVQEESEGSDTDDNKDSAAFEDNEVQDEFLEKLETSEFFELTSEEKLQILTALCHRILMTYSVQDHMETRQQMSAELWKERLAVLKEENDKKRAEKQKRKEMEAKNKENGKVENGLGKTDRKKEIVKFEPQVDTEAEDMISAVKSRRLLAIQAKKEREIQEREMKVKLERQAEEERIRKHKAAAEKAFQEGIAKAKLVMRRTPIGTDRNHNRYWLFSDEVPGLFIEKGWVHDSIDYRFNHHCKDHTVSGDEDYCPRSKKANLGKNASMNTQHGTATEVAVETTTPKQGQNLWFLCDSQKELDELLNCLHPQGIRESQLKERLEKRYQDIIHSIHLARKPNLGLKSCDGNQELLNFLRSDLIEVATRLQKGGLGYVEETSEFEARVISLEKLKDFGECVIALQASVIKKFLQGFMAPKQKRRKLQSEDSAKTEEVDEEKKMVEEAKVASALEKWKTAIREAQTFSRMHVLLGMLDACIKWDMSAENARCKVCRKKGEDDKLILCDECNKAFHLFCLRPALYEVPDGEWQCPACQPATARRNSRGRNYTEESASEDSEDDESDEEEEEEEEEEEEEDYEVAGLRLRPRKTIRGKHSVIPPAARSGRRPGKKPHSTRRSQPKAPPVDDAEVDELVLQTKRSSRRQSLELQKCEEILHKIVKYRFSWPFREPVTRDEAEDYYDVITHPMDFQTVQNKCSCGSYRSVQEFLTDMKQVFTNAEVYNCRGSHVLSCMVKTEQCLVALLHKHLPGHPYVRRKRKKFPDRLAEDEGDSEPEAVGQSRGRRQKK
UniProt P35372, sequence (whole entry, looked up): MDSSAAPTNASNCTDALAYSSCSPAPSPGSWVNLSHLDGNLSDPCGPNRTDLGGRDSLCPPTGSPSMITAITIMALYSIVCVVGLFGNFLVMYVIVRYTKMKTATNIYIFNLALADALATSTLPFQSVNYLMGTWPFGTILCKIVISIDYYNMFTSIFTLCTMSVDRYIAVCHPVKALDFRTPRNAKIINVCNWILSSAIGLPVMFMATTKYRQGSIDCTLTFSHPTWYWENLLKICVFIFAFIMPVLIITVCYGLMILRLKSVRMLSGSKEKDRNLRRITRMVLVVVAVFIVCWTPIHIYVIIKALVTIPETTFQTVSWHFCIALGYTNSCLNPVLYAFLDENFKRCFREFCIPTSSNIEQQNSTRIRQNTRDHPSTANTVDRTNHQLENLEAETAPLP
UniProt P36894, sequence (whole entry, looked up): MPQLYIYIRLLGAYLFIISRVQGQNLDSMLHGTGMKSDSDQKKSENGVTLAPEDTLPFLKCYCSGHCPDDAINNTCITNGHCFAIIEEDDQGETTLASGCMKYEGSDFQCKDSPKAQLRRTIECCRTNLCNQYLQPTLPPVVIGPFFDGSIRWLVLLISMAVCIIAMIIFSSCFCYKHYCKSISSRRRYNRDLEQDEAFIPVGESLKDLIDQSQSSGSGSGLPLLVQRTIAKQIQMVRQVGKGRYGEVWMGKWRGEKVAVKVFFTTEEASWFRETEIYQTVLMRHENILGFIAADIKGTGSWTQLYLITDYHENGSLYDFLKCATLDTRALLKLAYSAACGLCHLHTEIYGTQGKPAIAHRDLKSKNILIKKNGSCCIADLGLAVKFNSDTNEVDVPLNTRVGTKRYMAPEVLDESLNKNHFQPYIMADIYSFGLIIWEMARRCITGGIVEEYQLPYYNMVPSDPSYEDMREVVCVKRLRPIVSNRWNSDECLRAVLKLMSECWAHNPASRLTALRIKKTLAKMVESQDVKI
UniProt Q9Y2K2, sequence (whole entry, looked up): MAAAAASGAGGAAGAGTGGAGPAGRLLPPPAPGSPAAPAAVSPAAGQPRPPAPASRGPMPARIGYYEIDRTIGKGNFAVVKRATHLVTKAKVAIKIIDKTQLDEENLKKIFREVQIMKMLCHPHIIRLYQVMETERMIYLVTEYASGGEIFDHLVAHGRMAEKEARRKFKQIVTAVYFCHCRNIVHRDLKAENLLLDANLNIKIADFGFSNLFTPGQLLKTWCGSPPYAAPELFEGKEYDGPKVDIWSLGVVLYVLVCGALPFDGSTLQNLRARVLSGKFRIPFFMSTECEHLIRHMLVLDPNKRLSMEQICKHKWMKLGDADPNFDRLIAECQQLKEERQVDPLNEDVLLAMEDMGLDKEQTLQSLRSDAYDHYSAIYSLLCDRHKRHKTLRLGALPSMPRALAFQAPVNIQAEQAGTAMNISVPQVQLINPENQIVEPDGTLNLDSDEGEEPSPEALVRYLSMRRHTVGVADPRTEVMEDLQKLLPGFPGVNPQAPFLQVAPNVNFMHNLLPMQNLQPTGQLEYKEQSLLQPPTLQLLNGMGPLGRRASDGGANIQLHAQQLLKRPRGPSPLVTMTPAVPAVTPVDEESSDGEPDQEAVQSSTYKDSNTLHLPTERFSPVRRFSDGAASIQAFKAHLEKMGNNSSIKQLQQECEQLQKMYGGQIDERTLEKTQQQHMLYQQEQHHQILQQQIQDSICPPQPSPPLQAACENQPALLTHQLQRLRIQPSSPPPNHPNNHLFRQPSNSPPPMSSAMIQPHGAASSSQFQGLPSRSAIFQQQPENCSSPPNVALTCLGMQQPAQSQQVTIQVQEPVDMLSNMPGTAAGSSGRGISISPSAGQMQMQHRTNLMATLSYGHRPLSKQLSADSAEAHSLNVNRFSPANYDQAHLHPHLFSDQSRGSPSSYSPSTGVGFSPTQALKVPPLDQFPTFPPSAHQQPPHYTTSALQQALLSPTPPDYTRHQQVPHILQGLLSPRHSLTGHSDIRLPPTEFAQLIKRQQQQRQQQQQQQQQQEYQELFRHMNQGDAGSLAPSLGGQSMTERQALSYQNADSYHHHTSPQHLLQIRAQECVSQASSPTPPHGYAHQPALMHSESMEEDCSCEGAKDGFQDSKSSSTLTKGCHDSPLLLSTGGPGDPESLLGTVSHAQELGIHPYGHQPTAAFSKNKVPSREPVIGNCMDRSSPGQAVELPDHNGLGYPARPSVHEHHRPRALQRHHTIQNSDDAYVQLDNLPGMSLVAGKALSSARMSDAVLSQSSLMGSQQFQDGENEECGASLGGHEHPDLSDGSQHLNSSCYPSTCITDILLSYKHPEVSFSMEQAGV

COc1ncccc1-c1cnn2ccc(N3CCN(C(=O)OC(C)C)CC3)nc12  remaining binding (BMPR1A (Homo sapiens, UniProt P36894); binding, competition with immobilised ligand; 1 µM): 93%
CC(C)CC(=O)OC[C@H]1O[C@@](C#N)(c2ccc3c(N)ncnn23)[C@H](O)[C@@H]1O  inhibition (OPRM1 (Homo sapiens, UniProt P35372); cell-free assay; 20 µM): 13%
c1cncc([C@@H]2CCCN2)c1  inhibition (SLC6A3 (Homo sapiens, UniProt Q01959); ligand displacement; 50 µM): 1.26%
Nc1ncc(-c2nc(N3CCOCC3)nc(N3CCOCC3)n2)c(C(F)F)n1  remaining binding (STK36 (Homo sapiens, UniProt Q9NRP7); binding, competition with immobilised ligand; 10 µM): 99%
CCCCC/C=C\[C@H](C)/C=C\C/C=C\Cc1ccccc1CCCC(=O)N[C@H](C)CO  Emax (CNR2 (Homo sapiens, UniProt P34972); β-arrestin recruitment, agonist): 53%
CCN(CC)CCCC[C@H](NC(=O)[C@H](CC(C)C)NC(=O)[C@H](C)NC(=O)[C@H](Cc1ccccc1)NC(=O)c1ccc(C(C)(C)C)cc1)C(=O)N[C@@H](CO)C(=O)OC  ΔTm (BAZ1B (Homo sapiens, UniProt Q9UIG0); thermal stability, DSF; 25 µM): 0.37 °C
Cc1nn(C)cc1-c1nc2c(N3CCN(Cc4ccc(Cl)cc4)CC3)c(Cl)cnc2[nH]1  remaining binding (SIK3 (Homo sapiens, UniProt Q9Y2K2); binding, competition with immobilised ligand; 1 µM): 100%
[2H]c1c([2H])c([C@]2([2H])CCCN2C(=O)C(C)(C)Oc2ccc3cn[nH]c3c2)c([2H])c([2H])c1C([2H])([2H])[2H]  remaining binding (CILK1 (Homo sapiens, UniProt Q9UPZ9); binding, competition with immobilised ligand; 1 µM): 85%

Excerpt of the above:
c1cncc([C@@H]2CCCN2)c1  inhibition (SLC6A3 (Homo sapiens, UniProt Q01959); ligand displacement; 50 µM): 1.26%
